# Published values collected from several papers.
# Parts stem from different laboratories: compare values within a part only. Positions count from the first letter of the parent shown.

# Sample 1
# Target: PABPC1L2, full length, GST fusion (mouse, UniProt A0ABA7IW68)
# Method: RNAcompete
# Molecule type: RNA
# Matrix: in vitro
# Tested at: 20 nM
# Setting: 7-mer, probes averaged, single round
# Reference: mean of 7-mers
# Reading: higher = stronger binding
# Target sequence (chain): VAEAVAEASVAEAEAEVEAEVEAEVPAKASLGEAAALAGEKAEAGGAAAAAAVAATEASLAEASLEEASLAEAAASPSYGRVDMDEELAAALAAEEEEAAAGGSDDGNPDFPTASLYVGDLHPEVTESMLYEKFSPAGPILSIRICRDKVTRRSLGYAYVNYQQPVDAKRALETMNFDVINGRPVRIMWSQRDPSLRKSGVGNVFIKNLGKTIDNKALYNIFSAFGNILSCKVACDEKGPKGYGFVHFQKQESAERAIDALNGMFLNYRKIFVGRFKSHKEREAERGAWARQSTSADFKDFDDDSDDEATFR
Sequence,7-mer Z-score
AUCCUGA,-0.228
GCUUACC,-0.251
CUAACCG,-0.246
UACAUGC,-0.161
CGCGUGG,0.0587
AACCUGA,0.0805
GUCUGAU,-0.255
CCGUGAU,-0.257
GGCAAAC,0.601
GCAAUAC,0.00436
GGGCCAG,0.387
CAGGGUA,0.0569
GUCGGAA,-0.00289
AGGCAUA,0.2
ACGAAUG,-0.0754
UGUACUC,-0.325

# Sample 2
# Target: RING finger protein unkempt homolog, zinc fingers 1-6, GST-SBP tag (UNK, Homo sapiens, UniProt Q9C0B0, residues 30-357)
# Sequence of UniProt Q9C0B0 (30-357, looked up): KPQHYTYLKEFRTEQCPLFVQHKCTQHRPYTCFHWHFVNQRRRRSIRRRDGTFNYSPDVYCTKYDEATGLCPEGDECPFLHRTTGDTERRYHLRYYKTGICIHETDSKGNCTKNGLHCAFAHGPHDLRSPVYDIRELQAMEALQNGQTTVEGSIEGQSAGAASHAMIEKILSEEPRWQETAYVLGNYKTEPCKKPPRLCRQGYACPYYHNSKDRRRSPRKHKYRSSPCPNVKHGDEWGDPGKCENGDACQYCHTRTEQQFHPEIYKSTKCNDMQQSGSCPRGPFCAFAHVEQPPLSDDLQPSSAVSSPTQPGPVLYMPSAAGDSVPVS
# Method: RNA Bind-n-Seq
# Molecule type: RNA
# Matrix: in vitro
# Tested at: not given
# Setting: RNA with constant flanks, ends assumed
# Reference: input RNA pool
# Reading: higher = stronger binding
# Shared flanks, not repeated: GGGAGUUCUACAGUCCGACGAUC … CAACAGAGGAUUGAGCAUCA
Sequence,bound/input enrichment
ACAGUUUUCAAAAGUUCUUAAAGGCAAGAGUGAAUUUCUGUGGAUUUUACUGGUCCCAGCUUUCCGGUUCUUUAAGACACUAACAGGACUACAUAGAGGCUUUUUCAGCAUUACUGUGUC,0.196 ratio
UUUAUGUAUAUGAGUACACUGCAGCUGUACAGAUGGUUAUGAGCCAUCGUGGUUGCUGAGAACCGAACUCAAGACCUCUGCUUGCUCAGCCCCGCUCCCUCGCUGUGUCCCAAAGAUUUA,0.223 ratio
AGAUAUUUUGAAGAAAAAAAAAAUUCAAACAGAUUUAUCAAGGGUAACCAGCUUGGAGUCCCGCAAUUUUGCCAAUGUGCUUACCAAUUUGGGGGCUUGUUUUUCUUCCCUUCCUUACAU,0.314 ratio
GCUCACAGCAUCCCAGUAACUGAUGGCAUGUUUGUCUUUAUGUAAACUAUAUUGAAAUUUUCCGGGGCUAUUUUCCAUUAUGUCUGAACCUACUUUUGAUCUGAAAGCUUAACUUUAUAA,0.733 ratio
AGAUGCAGAGCCAGGCCCCCUGGAAGAGCUUGCAGCAACCCCUCCUUCCUUCAGUUUCAACCCGACUUCUAUCAAGUCUACUUUCUGGCCCUGGCAGCGGACUGGCUCCAAGCUCCCUAC,0.228 ratio
CUGAAUAGCAAUAAAUAUUUUCCCAGCAGGGUUAGCAUAAAAGAAUCAUCUGUAGCAAAACCCGGAUCAGUGUGCCGUAGGAUUUAUAGAAUAUUUUCACAUGCCUAUUUUCAUCACCGG,7.51 ratio
GGGGCAUUAAUUGCUUCUCUUAUCAACUGCUACAUCAGAGAUAAUGCCGCUGUUGAUGGCAUCCGUUUACAUUUACAGGAUAUCUGCCCACUUCUAUAUAGCACUGAUGAUGCAAUUUGU,0.498 ratio
AUGGCAACAUCAGAAGCACUCAAGAUUUCCAGAGAGGUAGAUCCAGAUGGGCGCAGAACUCCCGCUGUAAUCACUAAACUUGAUCUCAUGGAUGCGGGUACUGAUGCCAUGGAUGUAUUG,0.147 ratio
ACCACCGGAGAAUUCCUGGGGCGCACCGCCAAGAGCUGGGGUUUGAUCUUGCUCUUCUACCCCGUUUUUUAUGGGUUCCUGGCUGCACUCUUCUCAUUCACGAUGUGGGUUAUGCUUCAG,0.209 ratio
UUACGCUCUCCCGCGGCACGUCCGCGAGGACUUGAAGUCCUGAGCGCUCAAGUUUGUCCGCCGGUCGAGAGAAGGCCAUGGAGGUGCCGCCACCGGCACCGCGGAGCUUUCUCUGUAGAG,0.0748 ratio
UACCAUAAUCAAAAGUUUGAAAUAUCCUGUUUCUUAAAUAAUGAGAACAUUAAUCACAUUCCGCAAGCAUUUGUACAUUCAAACCUGGAUAUUAAAGUGAAAUGAUUACUUUGAAUCACU,0.18 ratio

# Sample 3
# Target: CCND3, cyclin fold, Cln2 fusion (human)
# Method: yeast growth competition, sequencing
# Matrix: yeast
# Setting: weak parent motif
# Reference: not given
# Reading: higher = stronger binding
# Parent: MASTL docking peptide (human); PMIAKNLMCELDE
Substitution,normalised enrichment score
C9L,-0.246
L7P,0.0412
D12Y,-0.258
M2L,0.182
L11R,-0.399
C9N,-0.251
D12T,0.154
N6R,0.285
K5Y,-0.217
D12E,-0.112
L11M,-0.454
K5A,0.0511
A4K,0.161

# Other studies, line by line
Substance,target,assay,test system,setting,scale,measurement,result
"PhoQ, residues 284 288 289 292 302 303 NLCILV","PhoP, residues 12 14 15 18 19 IQFRS (Escherichia coli, UniProt P23836)","Sort-seq, refers to: YFP reporter",E. coli,"PhoQ-PhoP variant library, together with: 10 µM Mg2+","reference: high Mg2+ state, higher = stronger signaling",fold induction,14.8

# Some of these lines once more (sample 2):
Sequence,bound/input enrichment
GGGGCAUUAAUUGCUUCUCUUAUCAACUGCUACAUCAGAGAUAAUGCCGCUGUUGAUGGCAUCCGUUUACAUUUACAGGAUAUCUGCCCACUUCUAUAUAGCACUGAUGAUGCAAUUUGU,0.498 ratio
AUGGCAACAUCAGAAGCACUCAAGAUUUCCAGAGAGGUAGAUCCAGAUGGGCGCAGAACUCCCGCUGUAAUCACUAAACUUGAUCUCAUGGAUGCGGGUACUGAUGCCAUGGAUGUAUUG,0.147 ratio
ACCACCGGAGAAUUCCUGGGGCGCACCGCCAAGAGCUGGGGUUUGAUCUUGCUCUUCUACCCCGUUUUUUAUGGGUUCCUGGCUGCACUCUUCUCAUUCACGAUGUGGGUUAUGCUUCAG,0.209 ratio
UUACGCUCUCCCGCGGCACGUCCGCGAGGACUUGAAGUCCUGAGCGCUCAAGUUUGUCCGCCGGUCGAGAGAAGGCCAUGGAGGUGCCGCCACCGGCACCGCGGAGCUUUCUCUGUAGAG,0.0748 ratio
UACCAUAAUCAAAAGUUUGAAAUAUCCUGUUUCUUAAAUAAUGAGAACAUUAAUCACAUUCCGCAAGCAUUUGUACAUUCAAACCUGGAUAUUAAAGUGAAAUGAUUACUUUGAAUCACU,0.18 ratio
